Measurements from different studies.
Target: Glycogen synthase kinase-3 beta (GSK3B, Homo sapiens, UniProt P49841)
Chain of UniProt P49841 (whole entry, looked up): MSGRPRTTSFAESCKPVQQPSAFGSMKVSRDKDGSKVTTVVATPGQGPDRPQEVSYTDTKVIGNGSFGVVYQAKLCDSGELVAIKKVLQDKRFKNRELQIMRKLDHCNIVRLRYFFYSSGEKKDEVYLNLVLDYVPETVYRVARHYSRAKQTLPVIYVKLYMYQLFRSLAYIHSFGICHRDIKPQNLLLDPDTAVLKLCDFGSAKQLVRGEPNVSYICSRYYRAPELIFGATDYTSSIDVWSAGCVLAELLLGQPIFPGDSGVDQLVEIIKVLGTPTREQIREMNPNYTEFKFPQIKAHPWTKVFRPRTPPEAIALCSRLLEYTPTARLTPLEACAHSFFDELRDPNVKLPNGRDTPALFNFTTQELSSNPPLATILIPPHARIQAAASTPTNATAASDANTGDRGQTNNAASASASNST

| Structure (SMILES) | assay | conditions | endpoint | result |
| --- | --- | --- | --- | --- |
| CCn1cc(C(=O)O)c(=O)c2c(N)c(F)c(NC3CCCCC3)cc21 | enzyme activity, inhibitor |  | IC50 | 0.0082 µM |
| Cc1cc(C)c(S(=O)(=O)N(CC(=O)O)c2ccc(Nc3ccnc(N4CCCC4)n3)cc2)c(C)c1 | enzyme activity, inhibitor |  | IC50 | > 100 µM |
| CCN(CC)CC(=O)Nc1cccc(-n2cc(-c3ccc4ccc(-c5cn(-c6cccc(NC(=O)CN(CC)CC)c6)nn5)cc4c3)nn2)c1 | enzyme activity, inhibitor |  | IC50 | > 10 µM |
| CC1Cc2ccccc2N1C1=C(c2ccccc2)C(=O)NC1=O (stereo not drawn) | enzyme activity, inhibitor |  | IC50 | 4.53 µM |
| Cc1nn(-c2cccc(N)c2)c(=O)c2cnc(Nc3ccc(N4CCNCC4)cc3)nc12 | enzyme activity, inhibitor |  | IC50 | 1.9 µM |
| COc1ccc(N(C)C2=C(c3ccccc3)C(=O)NC2=O)cc1 | enzyme activity, inhibitor |  | IC50 | 30.3 µM |
| Cn1ncc2cc(-c3cncc(Cl)c3N3CCC4(CCNC4=O)CC3)ccc21 | cell-free assay | lysate | Kd | 1.66 µM |
| O=C(NCC1CCOCC1)c1n[nH]cc1NC(=O)c1c(F)cccc1F | target engagement in cells, BRET |  | IC50 | 0.012 µM |
| COc1ccc2c(c1)N(C1=C(c3ccccc3)C(=O)NC1=O)CC2 | enzyme activity, inhibitor |  | IC50 | 13.1 µM |

Some of these lines once more:
| Structure (SMILES) | assay | conditions | endpoint | result |
| --- | --- | --- | --- | --- |
| Cc1cc(C)c(S(=O)(=O)N(CC(=O)O)c2ccc(Nc3ccnc(N4CCCC4)n3)cc2)c(C)c1 | enzyme activity, inhibitor |  | IC50 | > 100 µM |
